Experimental data pooled from the literature.
± gives the spread as reported.
Organism: Staphylococcus aureus

CC(=O)NC[C@H]1CN(c2ccc(N3CCOCC3)c(F)c2)C(=O)O1
MIC (ATCC 29213 MSSA): 4 µg/mL

CN(C)c1cc(NC(=O)CNC(C)(C)C)c(O)c2c1C[C@H]1C[C@H]3[C@H](N(C)C)C(O)=C(C(N)=O)C(=O)[C@@]3(O)C(O)=C1C2=O
MIC (MRSA 5, Tet M, 50% human serum): 1 µg/mL

CS(=O)(=O)c1ccc(C=Nc2ncn[nH]2)cc1
MIC (microbial growth, broth dilution; ATCC29213): 128 µg/mL

CN[C@H](CC(C)C)C(=O)N[C@H]1C(=O)N[C@@H](CC(N)=O)C(=O)N[C@H]2C(=O)N[C@H]3C(=O)N[C@H](C(=O)N[C@H](C(=O)O)c4cc(O)cc(O)c4-c4cc3ccc4O)[C@H](O)c3ccc(c(Cl)c3)Oc3cc2cc(c3O[C@@H]2O[C@H](CO)[C@@H](O)[C@H](O)[C@H]2O[C@H]2C[C@](C)(N)[C@H](O)[C@H](C)O2)Oc2ccc(cc2Cl)[C@H]1O
MIC (MRSA 5, Tet M, 50% human serum): 1 µg/mL

CCCCCn1sc2ccccc2c1=O
MIC (panel of 28 strains): 0.25 to 62.5 µg/mL

CN(C)c1ccc(O)c2c1C[C@H]1C[C@H]3[C@H](N(C)C)C(O)=C(C(N)=O)C(=O)[C@@]3(O)C(O)=C1C2=O
MIC (MRSA 5, Tet M, 50% mouse serum): 64 µg/mL

CCCCC(=O)N1C(=O)/C(=C(/C)O)C(=O)C1CC(C)C (centres unmarked)
MIC (microbial growth, broth dilution; MSSA NEWMAN): 50 µg/mL

O=C(Cc1cccc(F)c1F)N1CCC(c2ccccc2)C1 (centres unmarked)
MIC (various strains incl. MRSA): ≥ 50 µg/mL

CCc1cc(=O)c2c(OCC(O)CNC(C)(C)C)c3ccoc3c(OC)c2o1 (centres unmarked)
MIC (microbial growth, broth dilution; ATCC6538; 19 h): > 256 µg/mL

CCCCCCC/C=C/C(=O)N1C(=O)/C(=C(/C)O)C(=O)C1Cc1ccc(O)cc1 (centres unmarked)
MIC (microbial growth, broth dilution; MSSA NEWMAN): 50 µg/mL

CCOC(=O)c1c(N)csc1-c1cn(-c2ccccc2)nc1-c1ccc(C)cc1
MIC (broth microdilution; clinical urinary isolate; compound gamma-irradiated 15 kGy): 0.124 ± 0.2 µg/mL

CCCCCCC/C=C/C(=O)N1C(=O)/C(=C(\O)c2ccc(F)cc2)C(=O)C1CC(C)C (centres unmarked)
MIC (microbial growth, broth dilution; MSSA NEWMAN): 0.2 µg/mL

CCc1cc(=O)c2c(OCC(O)CN3CCCCC3)c3ccoc3c(OC)c2o1 (centres unmarked)
MIC (microbial growth, broth dilution; ATCC25; 19 h): > 256 µg/mL

CC(=O)NC[C@H]1CN(c2ccc(N3CCOCC3)c(F)c2)C(=O)O1
MIC (broth microdilution; USA300 LAC; 5% human serum): 8 µM

COc1cc(OC)cc(-n2sc3ccccc3c2=O)c1
MIC (panel of 28 strains): ≤ 2 µg/mL

CN[C@H](CC(C)C)C(=O)N[C@H]1C(=O)N[C@@H](CC(N)=O)C(=O)N[C@H]2C(=O)N[C@H]3C(=O)N[C@H](C(=O)N[C@H](C(=O)O)c4cc(O)cc(O)c4-c4cc3ccc4O)[C@H](O)c3ccc(c(Cl)c3)Oc3cc2cc(c3O[C@@H]2O[C@H](CO)[C@@H](O)[C@H](O)[C@H]2O[C@H]2C[C@](C)(N)[C@H](O)[C@H](C)O2)Oc2ccc(cc2Cl)[C@H]1O
MIC (bacterial growth; ATCC 12608, LB broth; 18 h, 37 °C): 0.7 µM

O=C(O)c1ccc(C=Nc2ncn[nH]2)cc1
MIC (microbial growth, broth dilution; ATCC29213): 256 µg/mL

CCCCCCC/C=C/C(=O)N1C(=O)/C(=C(\O)c2ccc(O)cc2)C(=O)C1CC(C)C (centres unmarked)
MIC (microbial growth, broth dilution; MSSA NEWMAN): 6.25 µg/mL

CCc1cc(=O)c2c(OCC3CO3)c3ccoc3c(OC)c2o1 (centres unmarked)
MIC (microbial growth, broth dilution; ATCC25; 19 h): > 256 µg/mL

Cc1ccc(C(C)C)cc1.Cc1ccc(C(C)C)cc1.[Cl][Ru][Cl].[Cl][Ru][Cl]
MIC (broth microdilution; ATCC 29213; 37 °C): > 1000 µg/mL

CCOc1ccc2ccccc2c1C(=O)N[C@@H]1C(=O)N2[C@@H]1SC(C)(C)[C@@H]2C(=O)O
MIC (broth microdilution; USA300 LAC; 5% human serum): 2 to 4 µM

CN[C@H](CC(C)C)C(=O)N[C@H]1C(=O)N[C@@H](CC(N)=O)C(=O)N[C@H]2C(=O)N[C@H]3C(=O)N[C@H](C(=O)N[C@H](C(=O)O)c4cc(O)cc(O)c4-c4cc3ccc4O)[C@H](O)c3ccc(c(Cl)c3)Oc3cc2cc(c3O[C@@H]2O[C@H](CO)[C@@H](O)[C@H](O)[C@H]2O[C@H]2C[C@](C)(N)[C@H](O)[C@H](C)O2)Oc2ccc(cc2Cl)[C@H]1O
MIC (microbial growth, broth dilution; ATCC29213; 16 h): 1 µg/mL

C(=Nc1ncn[nH]1)c1ccncc1
MIC (microbial growth, broth dilution; ATCC29213): 256 µg/mL

COc1cc2cc(-c3cccc(-c4ccc(-c5ccccc5)cc4)c3)[n+](C)c(C)c2cc1OC.[I-]
MIC (broth microdilution; ATCC 33591 MRSA, broth with 2% NaCl; 24 h, 37 °C): 1 to 8 µg/mL

CN(Cc1cnc2nc(N)nc(N)c2n1)c1ccc(C(=O)N[C@@H](CCC(=O)O)C(=O)O)cc1
MIC (microbial growth, broth dilution; ATCC43300; 18 h): 125 µg/mL

Clc1ccc(C=Nc2ncn[nH]2)cc1
MIC (microbial growth, broth dilution; ATCC29213): 256 µg/mL

O=C(O)c1cccc(-n2c(SCc3ccccc3)nc3ccccc3c2=O)c1
MIC (broth microdilution; ATCC 29213 MSSA): 0.125 to 2 µg/mL

CCCCCCC/C=C/C(=O)N1C(=O)/C(=C(\O)c2ccc(OCOCCOC)cc2)C(=O)C1CC(C)C (centres unmarked)
MIC (microbial growth, broth dilution; MSSA NEWMAN): 0.78 µg/mL

COc1ccccc1C1CCN(C(=O)Cc2cccc(F)c2F)C1 (centres unmarked)
MIC (various strains incl. MRSA): ≥ 50 µg/mL

CN[C@H](CC(C)C)C(=O)N[C@H]1C(=O)N[C@@H](CC(N)=O)C(=O)N[C@H]2C(=O)N[C@H]3C(=O)N[C@H](C(=O)N[C@H](C(=O)O)c4cc(O)cc(O)c4-c4cc3ccc4O)[C@H](O)c3ccc(c(Cl)c3)Oc3cc2cc(c3O[C@@H]2O[C@H](CO)[C@@H](O)[C@H](O)[C@H]2O[C@H]2C[C@](C)(N)[C@H](O)[C@H](C)O2)Oc2ccc(cc2Cl)[C@H]1O
MIC (broth microdilution; MRSA2, methicillin-resistant; 16 to 24 h): 2 µg/mL

CNC(C)C1CCC(N)C(OC2C(N)CC(N)C(OC3OCC(C)(O)C(NC)C3O)C2O)O1 (centres unmarked)
MIC (MRSA USA300; 20% human serum): 0.5 µM

C(=Nc1ncn[nH]1)c1ccc(-c2ccccc2)cc1
MIC (microbial growth, broth dilution; ATCC29213): 128 µg/mL

C/C(O)=C1\C(=O)C(CC(C)C)N(C(=O)C=Cc2ccccc2)C1=O (centres unmarked)
MIC (microbial growth, broth dilution; MSSA NEWMAN): 12.5 µg/mL

CCCCCCCCCCCCn1sc2ccccc2c1=O
MIC (panel of 28 strains): 0.25 to 62.5 µg/mL

COc1ccccc1C1CCN(C(=O)Cc2ccccc2F)C1 (centres unmarked)
MIC (various strains incl. MRSA): ≥ 50 µg/mL

CC1(C)S[C@@H]2[C@H](NC(=O)[C@H](N)c3ccccc3)C(=O)N2[C@H]1C(=O)O
MIC (serial dilution; ATCC 25923; 24 h, 37 °C): 5 ± 0.7 µg/mL

O=C(O)c1cn(C2CC2)c2cc(N3CCNCC3)c(F)cc2c1=O
MIC (microbial growth, broth dilution; ATCC29; 19 h): 0.5 µg/mL

O=[N+]([O-])c1ccc(C=Nc2nc[nH]n2)c(O)c1
MIC (broth microdilution; MRSA2, methicillin-resistant; 16 to 24 h): 32 µg/mL

NC[C@@H]1O[C@H](O[C@H]2[C@@H](O)[C@H](O[C@@H]3[C@@H](O)[C@H](N)C[C@H](N)[C@H]3O[C@H]3O[C@H](CO)[C@@H](O)[C@H](O)[C@H]3N)O[C@@H]2CO)[C@H](N)[C@@H](O)[C@@H]1O
MIC (microbial growth, broth dilution; MRSA; clinical isolate): 4 µg/mL

Oc1ccc(O)c(C=Nc2ncn[nH]2)c1
MIC (microbial growth, broth dilution; ATCC29213): 16 µg/mL

CCc1cc(=O)c2c(O)c3ccoc3c(OC)c2o1
MIC (microbial growth, broth dilution; ATCC29; 19 h): 128 µg/mL

O=C(Cc1ccccc1Cl)N1CCC(c2ccccn2)C1 (centres unmarked)
MIC (various strains incl. MRSA): 50 to 200 µg/mL

COc1cc2cc(-c3cccc(-c4ccc(C(C)(C)C)cc4)c3)[n+](C)c(C)c2cc1OC
MIC (broth microdilution; 8325-4 MSSA): 2.3 µM

CCc1cc(=O)c2c(OCC(O)CN(CC)CC)c3ccoc3c(OC)c2o1 (centres unmarked)
MIC (microbial growth, broth dilution; ATCC25; 19 h): > 256 µg/mL

O=C(Cc1ccccc1Cl)N1CCC(c2nccs2)C1 (centres unmarked)
MIC (various strains incl. MRSA): 50 to 200 µg/mL

teicoplanin aglycone
MIC (USA300 methicillin resistant; 18 h, 37 °C): 1 µg/mL

CCc1cc(=O)c2c(OCC(O)CNC(C)C)c3ccoc3c(OC)c2o1 (centres unmarked)
MIC (microbial growth, broth dilution; ATCC6538; 19 h): > 256 µg/mL

Excerpt of the above:
COc1cc2cc(-c3cccc(-c4ccc(C(C)(C)C)cc4)c3)[n+](C)c(C)c2cc1OC
MIC (broth microdilution; 8325-4 MSSA): 2.3 µM

CCCCCCC/C=C/C(=O)N1C(=O)/C(=C(/C)O)C(=O)C1Cc1ccc(O)cc1 (centres unmarked)
MIC (microbial growth, broth dilution; MSSA NEWMAN): 50 µg/mL

O=C(O)c1ccc(C=Nc2ncn[nH]2)cc1
MIC (microbial growth, broth dilution; ATCC29213): 256 µg/mL

CCCCCCC/C=C/C(=O)N1C(=O)/C(=C(\O)c2ccc(F)cc2)C(=O)C1CC(C)C (centres unmarked)
MIC (microbial growth, broth dilution; MSSA NEWMAN): 0.2 µg/mL

teicoplanin aglycone
MIC (USA300 methicillin resistant; 18 h, 37 °C): 1 µg/mL
